Experimental data gathered from unrelated publications.
Numbered parts are unrelated; each lists some results of a single study.
UniProt P07333, sequence (whole entry, looked up): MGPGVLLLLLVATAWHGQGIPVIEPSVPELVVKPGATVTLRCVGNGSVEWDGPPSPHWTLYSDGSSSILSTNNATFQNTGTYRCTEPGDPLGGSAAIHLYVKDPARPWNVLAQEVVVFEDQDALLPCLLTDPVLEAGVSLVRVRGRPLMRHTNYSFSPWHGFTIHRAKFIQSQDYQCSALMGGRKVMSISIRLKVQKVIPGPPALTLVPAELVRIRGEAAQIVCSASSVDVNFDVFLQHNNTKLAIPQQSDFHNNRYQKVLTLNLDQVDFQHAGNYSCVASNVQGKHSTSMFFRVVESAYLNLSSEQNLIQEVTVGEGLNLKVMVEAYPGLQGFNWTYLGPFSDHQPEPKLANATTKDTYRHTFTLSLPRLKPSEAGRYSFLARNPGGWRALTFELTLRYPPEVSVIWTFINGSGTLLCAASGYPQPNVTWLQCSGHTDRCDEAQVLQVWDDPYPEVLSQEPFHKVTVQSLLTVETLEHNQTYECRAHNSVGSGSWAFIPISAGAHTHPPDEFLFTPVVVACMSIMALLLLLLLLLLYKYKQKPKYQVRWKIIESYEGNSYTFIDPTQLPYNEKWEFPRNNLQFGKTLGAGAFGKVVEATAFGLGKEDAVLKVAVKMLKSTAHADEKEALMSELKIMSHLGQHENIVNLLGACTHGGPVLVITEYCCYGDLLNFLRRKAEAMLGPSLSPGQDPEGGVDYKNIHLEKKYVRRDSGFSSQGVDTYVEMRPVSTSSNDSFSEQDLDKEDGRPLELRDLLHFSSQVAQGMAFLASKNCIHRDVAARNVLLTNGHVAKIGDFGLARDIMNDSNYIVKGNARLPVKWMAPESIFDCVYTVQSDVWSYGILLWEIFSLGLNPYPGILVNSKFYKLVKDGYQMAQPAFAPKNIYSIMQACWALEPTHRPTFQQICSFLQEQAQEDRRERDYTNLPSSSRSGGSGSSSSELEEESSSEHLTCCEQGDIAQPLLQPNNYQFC
UniProt P07947, sequence (whole entry, looked up): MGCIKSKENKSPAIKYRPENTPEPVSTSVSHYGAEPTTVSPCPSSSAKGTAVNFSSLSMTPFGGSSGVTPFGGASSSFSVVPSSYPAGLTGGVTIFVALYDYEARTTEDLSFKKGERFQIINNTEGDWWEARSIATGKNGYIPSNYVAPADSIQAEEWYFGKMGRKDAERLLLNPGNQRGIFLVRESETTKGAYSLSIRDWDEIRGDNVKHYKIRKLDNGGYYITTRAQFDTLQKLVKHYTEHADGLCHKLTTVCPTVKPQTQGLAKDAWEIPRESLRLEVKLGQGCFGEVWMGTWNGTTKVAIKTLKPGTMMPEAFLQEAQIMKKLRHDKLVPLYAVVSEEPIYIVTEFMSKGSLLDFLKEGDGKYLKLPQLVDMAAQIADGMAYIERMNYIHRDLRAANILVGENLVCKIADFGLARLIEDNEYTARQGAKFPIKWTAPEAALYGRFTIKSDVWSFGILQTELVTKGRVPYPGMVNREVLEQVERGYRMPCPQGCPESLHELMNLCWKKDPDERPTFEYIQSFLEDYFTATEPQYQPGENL
UniProt Q92918, sequence (whole entry, looked up): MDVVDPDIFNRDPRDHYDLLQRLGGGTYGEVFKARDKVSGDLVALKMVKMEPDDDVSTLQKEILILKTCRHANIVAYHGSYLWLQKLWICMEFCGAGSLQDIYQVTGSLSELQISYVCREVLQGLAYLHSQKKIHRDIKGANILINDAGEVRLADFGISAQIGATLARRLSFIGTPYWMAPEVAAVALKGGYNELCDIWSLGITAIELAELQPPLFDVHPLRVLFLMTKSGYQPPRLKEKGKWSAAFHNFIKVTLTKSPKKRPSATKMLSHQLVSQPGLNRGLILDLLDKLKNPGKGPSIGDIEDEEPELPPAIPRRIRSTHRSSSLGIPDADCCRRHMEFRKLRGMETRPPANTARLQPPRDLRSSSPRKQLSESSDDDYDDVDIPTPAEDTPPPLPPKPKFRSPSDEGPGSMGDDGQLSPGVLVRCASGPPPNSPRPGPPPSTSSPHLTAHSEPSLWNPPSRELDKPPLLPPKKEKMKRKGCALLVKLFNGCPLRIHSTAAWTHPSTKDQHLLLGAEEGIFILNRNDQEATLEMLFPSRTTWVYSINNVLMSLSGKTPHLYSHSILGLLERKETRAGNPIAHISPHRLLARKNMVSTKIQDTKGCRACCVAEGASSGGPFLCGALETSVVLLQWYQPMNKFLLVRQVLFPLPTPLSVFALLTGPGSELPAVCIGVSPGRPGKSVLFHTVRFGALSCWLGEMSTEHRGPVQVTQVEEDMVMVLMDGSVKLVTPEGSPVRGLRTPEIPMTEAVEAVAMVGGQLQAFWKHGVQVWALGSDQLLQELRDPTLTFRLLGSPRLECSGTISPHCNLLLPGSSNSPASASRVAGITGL
UniProt Q9UBS0, sequence (whole entry, looked up): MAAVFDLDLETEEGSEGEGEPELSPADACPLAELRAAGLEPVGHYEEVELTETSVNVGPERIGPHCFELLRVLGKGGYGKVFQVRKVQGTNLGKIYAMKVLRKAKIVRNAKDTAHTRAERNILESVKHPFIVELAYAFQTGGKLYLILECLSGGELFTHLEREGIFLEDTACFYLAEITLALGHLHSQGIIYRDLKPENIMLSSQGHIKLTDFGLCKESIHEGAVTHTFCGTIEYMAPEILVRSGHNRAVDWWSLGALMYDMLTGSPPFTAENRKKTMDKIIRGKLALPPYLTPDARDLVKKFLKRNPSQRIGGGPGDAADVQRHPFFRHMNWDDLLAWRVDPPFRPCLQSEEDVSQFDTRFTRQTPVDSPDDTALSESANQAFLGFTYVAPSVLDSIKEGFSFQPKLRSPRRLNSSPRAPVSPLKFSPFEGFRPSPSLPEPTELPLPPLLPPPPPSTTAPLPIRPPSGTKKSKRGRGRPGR
UniProt Q8NG66, sequence (whole entry, looked up): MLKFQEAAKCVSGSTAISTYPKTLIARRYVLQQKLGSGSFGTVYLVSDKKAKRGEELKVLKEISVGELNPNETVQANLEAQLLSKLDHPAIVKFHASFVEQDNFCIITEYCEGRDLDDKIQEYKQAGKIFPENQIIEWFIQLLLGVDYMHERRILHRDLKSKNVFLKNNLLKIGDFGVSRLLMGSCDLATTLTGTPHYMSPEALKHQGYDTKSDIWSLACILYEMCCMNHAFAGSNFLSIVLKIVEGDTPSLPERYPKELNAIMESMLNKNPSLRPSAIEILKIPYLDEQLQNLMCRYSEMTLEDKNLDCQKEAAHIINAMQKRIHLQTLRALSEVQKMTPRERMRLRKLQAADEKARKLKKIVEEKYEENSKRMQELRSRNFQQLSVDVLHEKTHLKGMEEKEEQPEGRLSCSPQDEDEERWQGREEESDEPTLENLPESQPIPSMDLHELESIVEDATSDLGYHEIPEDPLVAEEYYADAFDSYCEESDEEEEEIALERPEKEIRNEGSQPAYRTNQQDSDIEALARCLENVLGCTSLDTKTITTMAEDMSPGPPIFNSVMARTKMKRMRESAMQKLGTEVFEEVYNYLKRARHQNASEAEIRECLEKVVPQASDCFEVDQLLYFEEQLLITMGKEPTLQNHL
UniProt O60674, sequence (whole entry, looked up): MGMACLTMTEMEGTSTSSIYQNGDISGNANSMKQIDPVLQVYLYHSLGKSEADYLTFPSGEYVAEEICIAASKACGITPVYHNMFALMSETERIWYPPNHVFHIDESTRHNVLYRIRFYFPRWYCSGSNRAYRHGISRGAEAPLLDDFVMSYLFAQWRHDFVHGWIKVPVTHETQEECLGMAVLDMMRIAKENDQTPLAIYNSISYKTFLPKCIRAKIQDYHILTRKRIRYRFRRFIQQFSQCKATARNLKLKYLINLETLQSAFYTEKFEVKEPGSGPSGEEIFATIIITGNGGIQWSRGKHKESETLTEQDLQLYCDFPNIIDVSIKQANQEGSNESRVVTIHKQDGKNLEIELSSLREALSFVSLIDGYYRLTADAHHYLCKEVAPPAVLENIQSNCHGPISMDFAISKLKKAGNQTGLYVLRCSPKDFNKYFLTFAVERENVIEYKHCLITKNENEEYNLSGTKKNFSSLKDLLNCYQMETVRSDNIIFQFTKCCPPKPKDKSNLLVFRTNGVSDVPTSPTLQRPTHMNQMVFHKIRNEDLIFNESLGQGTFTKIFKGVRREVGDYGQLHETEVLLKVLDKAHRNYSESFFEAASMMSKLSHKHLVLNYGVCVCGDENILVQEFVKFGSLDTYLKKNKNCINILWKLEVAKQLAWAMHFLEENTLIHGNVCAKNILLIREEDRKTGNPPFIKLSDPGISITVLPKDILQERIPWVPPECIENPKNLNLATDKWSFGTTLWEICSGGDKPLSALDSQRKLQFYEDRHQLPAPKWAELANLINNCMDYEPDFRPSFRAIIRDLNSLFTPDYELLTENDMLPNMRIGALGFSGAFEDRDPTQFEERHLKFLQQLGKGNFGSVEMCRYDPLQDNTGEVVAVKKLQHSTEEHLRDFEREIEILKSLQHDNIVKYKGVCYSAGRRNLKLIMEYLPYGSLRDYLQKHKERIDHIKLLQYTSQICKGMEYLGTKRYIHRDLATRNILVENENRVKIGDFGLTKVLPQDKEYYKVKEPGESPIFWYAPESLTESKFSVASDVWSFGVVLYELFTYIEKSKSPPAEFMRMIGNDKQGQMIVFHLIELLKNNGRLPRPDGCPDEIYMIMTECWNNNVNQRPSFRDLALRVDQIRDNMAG
UniProt Q8TBX8, sequence (whole entry, looked up): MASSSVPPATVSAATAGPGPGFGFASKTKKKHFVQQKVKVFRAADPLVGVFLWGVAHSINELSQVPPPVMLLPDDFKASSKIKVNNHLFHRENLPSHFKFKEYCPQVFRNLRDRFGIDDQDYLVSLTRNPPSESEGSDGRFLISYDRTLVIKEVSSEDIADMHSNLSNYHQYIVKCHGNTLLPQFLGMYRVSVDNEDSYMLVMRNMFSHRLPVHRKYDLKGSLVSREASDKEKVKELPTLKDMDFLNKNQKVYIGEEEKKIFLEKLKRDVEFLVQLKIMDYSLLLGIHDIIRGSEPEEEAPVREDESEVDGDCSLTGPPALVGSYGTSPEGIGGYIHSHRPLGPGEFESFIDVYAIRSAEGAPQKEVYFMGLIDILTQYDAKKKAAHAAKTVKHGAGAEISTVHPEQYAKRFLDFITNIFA

Sample 1
SMILES: O=C1NC(=O)c2c1c1c3ccccc3n3c1c1c2c2ccccc2n1[C@H]1CC[C@@H]3O1
Read-out: enzyme activity
Mode: inhibitor
Tested at: 0.5 µM
Baseline: control
| target | remaining activity |
| --- | --- |
| JAK2 (Homo sapiens, UniProt O60674) | 14.2% |
| YES1 (Homo sapiens, UniProt P07947) | 31.9% |
| MARK1 (Homo sapiens, UniProt Q9P0L2) | 10.4% |
| PAK4 (Homo sapiens, UniProt O96013) | 75.3% |
| RPS6KB2 (Homo sapiens, UniProt Q9UBS0) | 35% |
| DYRK1A (Homo sapiens, UniProt Q13627) | 8.74% |

Sample 2
Organism: Sarcocystis neurona
Read-out: parasite growth
Tested at: 10 µM
Setting: secondary screen
| Structure (SMILES) | inhibition |
| --- | --- |
| C[C@H]1C[C@H]2[C@@H]3CCC4=CC(=O)C=C[C@]4(C)[C@@]3(F)[C@@H](O)C[C@]2(C)[C@@]1(O)C(=O)CO | -50.9% |
| O=C(O)COCCN1CCN(C(c2ccccc2)c2ccc(Cl)cc2)CC1 (stereo not drawn) | -5.6% |
| OC[C@H]1O[C@@H](n2cnc3c(NC4CCCC4)nc(Cl)nc32)[C@H](O)[C@@H]1O | -38.4% |
| CN1CCN(CC/C=C2/c3ccccc3Sc3ccc(S(=O)(=O)N(C)C)cc32)CC1 | 45.4% |
| C[C@H](CCC(=O)O)[C@H]1CC[C@H]2[C@@H]3[C@@H](O)C[C@@H]4C[C@H](O)CC[C@]4(C)[C@H]3CC[C@]12C | -19.9% |
| COC(=O)C1=C(C)NC(C)=C(C(=O)OC(C)C)C1c1cccc2nonc12 (stereo not drawn) | -68.5% |
| CCC(=O)OCC(=O)[C@@]1(OC(=O)CC)[C@@H](C)C[C@H]2[C@@H]3CCC4=CC(=O)C=C[C@]4(C)[C@@]3(Cl)[C@@H](O)C[C@@]21C | -30% |
| CCCN(CCC)S(=O)(=O)c1ccc(C(=O)O)cc1 | -27.7% |

Sample 3
Structure (SMILES): Cn1cncc1[C@](O)(COc1ccc(C#N)cc1-c1ccc(OC(F)(F)F)cc1)c1ccc(C#N)cc1
Method: competition with immobilised ligand
Tested at: 1 µM
| target | read-out | remaining binding |
| --- | --- | --- |
| CHEK2 (Homo sapiens, UniProt O96017) | cell-free assay | 100% |
| CSF1R (Homo sapiens, UniProt P07333) | cell-free assay | 94% |
| MAP3K5 (Homo sapiens, UniProt Q99683) | cell-free assay | 77% |
| NEK10 (Homo sapiens, UniProt Q6ZWH5) | cell-free assay | 83% |
| COQ8A (Homo sapiens, UniProt Q8NI60) | cell-free assay | 92% |
| PIP4K2C (Homo sapiens, UniProt Q8TBX8) | cell-free assay | 87% |
| PLK3 (Homo sapiens, UniProt Q9H4B4) | cell-free assay | 89% |
| MAP2K2 (Homo sapiens, UniProt P36507) | cell-free assay | 94% |
| NEK11 (Homo sapiens, UniProt Q8NG66) | cell-free assay | 100% |
| PLK2 (Homo sapiens, UniProt Q9NYY3) | cell-free assay | 94% |
| MAP4K1 (Homo sapiens, UniProt Q92918) | cell-free assay | 100% |
| ACVRL1 (Homo sapiens, UniProt P37023) | binding | 100% |
| DCLK3 (Homo sapiens, UniProt Q9C098) | cell-free assay | 99% |

Sample 4
Target: HLA class I histocompatibility antigen, C alpha chain, allele C*04:01 (Homo sapiens, UniProt P10321)
Read-out: peptide-MHC binding
Molecule type: peptide
Tested at: concentration not given
| Sequence | binding |
| --- | --- |
| ALFDRPAFK | inactive |
| YRATYSMAL | inactive |
| YFIFVRAIL | inactive |
| TYLSSSLFL | inactive |
| TFMDHVLRY | inactive |
| WTFTPTTPL | inactive |
| SQAAFGLPI | inactive |
| HPASRLFPF | inactive |
| ISDPLTSGL | inactive |

Repeated from above (sample 2):
| Structure (SMILES) | inhibition |
| --- | --- |
| O=C(O)COCCN1CCN(C(c2ccccc2)c2ccc(Cl)cc2)CC1 (stereo not drawn) | -5.6% |
| OC[C@H]1O[C@@H](n2cnc3c(NC4CCCC4)nc(Cl)nc32)[C@H](O)[C@@H]1O | -38.4% |
| CN1CCN(CC/C=C2/c3ccccc3Sc3ccc(S(=O)(=O)N(C)C)cc32)CC1 | 45.4% |
| C[C@H](CCC(=O)O)[C@H]1CC[C@H]2[C@@H]3[C@@H](O)C[C@@H]4C[C@H](O)CC[C@]4(C)[C@H]3CC[C@]12C | -19.9% |
| COC(=O)C1=C(C)NC(C)=C(C(=O)OC(C)C)C1c1cccc2nonc12 (stereo not drawn) | -68.5% |
| CCC(=O)OCC(=O)[C@@]1(OC(=O)CC)[C@@H](C)C[C@H]2[C@@H]3CCC4=CC(=O)C=C[C@]4(C)[C@@]3(Cl)[C@@H](O)C[C@@]21C | -30% |
